Assay results from different studies.

CCCCCCC1O[C@@H]2C[C@H]3[C@@H]4CCC5=CC(=O)C=C[C@]5(C)[C@H]4[C@@H](O)C[C@]3(C)[C@]2(C(=O)CO)O1 (some centres unmarked)  IC50 (Severe acute respiratory syndrome coronavirus 2; viral replication, inhibitor; Calu-3): 10.9 µM
CO/C1=C\C(C)=C\[C@@H](C)[C@@H](O)[C@@H](C)C/C(C)=C/C=C/[C@H](OC)[C@@H]([C@@H](C)[C@@H](O)[C@H](C)C(=O)/C=C/[C@H](C)[C@H](O)C(C)C)OC1=O  inhibition (Severe acute respiratory syndrome coronavirus 2; viral replication, inhibitor; Calu-3; 50 µM): 92.4%
Cc1ccc(N2CC3CC(C2)N3C)cc1C(=O)NC1(c2ccc3c4c(cccc24)C(=O)N3C)CC1  inhibition (Severe acute respiratory syndrome coronavirus 2; viral replication; Vero C1008; 5.716 nM): 0%
COC(=O)c1cc2c(=O)n3ccccc3nc2n1Cc1ccccc1  inhibition (Severe acute respiratory syndrome coronavirus 2; viral replication; Vero; 10 nM): 51.9%
CCCCCCCCCCCCC1O[C@@H]2C[C@H]3[C@@H]4CCC5=CC(=O)C=C[C@]5(C)[C@H]4[C@@H](O)C[C@]3(C)[C@]2(C(=O)CO)O1 (some centres unmarked)  IC50 (Severe acute respiratory syndrome coronavirus 2; viral replication, inhibitor; VeroE6/TMPRSS2; 24 h): 6.1 µM
CCCCCCCCCCCCCCCC(=O)N[C@@H](CCC(=O)NCCOCCOCCC(=O)NCCOCCOCCC(=O)NCCCC[C@H](NC(=O)[C@H](CC(=O)O)NC(=O)[C@H](CC(C)C)NC(=O)[C@H](Cc1ccc(O)cc1)NC(=O)[C@H](CCCCN)NC(=O)[C@H](CO)NC(=O)[C@H](Cc1ccc(O)cc1)NC(=O)[C@H](CC(=O)O)NC(=O)[C@H](CO)NC(=O)[C@@H](NC(=O)[C@H](Cc1ccccc1)NC(=O)[C@@H](NC(=O)CNC(=O)[C@H](CCC(N)=O)NC(=O)[C@@H](CO)NC(=O)[C@@H](N)Cc1c[nH]cn1)[C@@H](C)O)[C@@H](C)O)C(=O)N[C@@H](CCCNC(=N)N)C(=O)N[C@@H](CCCNC(=N)N)C(=O)N[C@@H](C)C(=O)N[C@@H](CCC(N)=O)C(=O)N[C@@H](CC(=O)O)C(=O)N[C@@H](Cc1ccccc1)C(=O)N[C@H](C(=O)N[C@@H](CCC(N)=O)C(=O)N[C@@H](Cc1c[nH]c2ccccc12)C(=O)N[C@@H](CC(C)C)C(=O)N[C@@H](CC(C)C)C(=O)N[C@@H](CC(N)=O)C(=O)N[C@H](C(=O)NCC(=O)NCC(=O)N1CCC[C@H]1C(=O)N[C@@H](CO)C(=O)N[C@@H](CO)C(=O)NCC(=O)N[C@@H](C)C(=O)N1CCC[C@H]1C(=O)N1CCC[C@H]1C(=O)N1CCC[C@H]1C(=O)N[C@@H](CO)C(N)=O)[C@@H](C)O)C(C)C)C(=O)O  MRT (rhesus monkey, plasma; intravenous, 15.3 µg/kg, single dose): 40.1 min
CCCCCCCCCC1O[C@@H]2C[C@H]3[C@@H]4CCC5=CC(=O)C=C[C@]5(C)[C@H]4[C@@H](O)C[C@]3(C)[C@]2(C(=O)CO)O1 (some centres unmarked)  IC50 (Severe acute respiratory syndrome coronavirus 2; viral replication, inhibitor; VeroE6/TMPRSS2; 24 h): 6.9 µM
O=C(O[C@@H]1Cc2c(O)cc(O)cc2O[C@H]1c1ccc(O)c(O)c1)c1cc(O)c(O)c(O)c1  EC50 (Severe acute respiratory syndrome coronavirus 2; antiviral activity; Huh-7; 96 h): > 100 µM
C=CCOC(=O)C12CCC(C)(C)CC1C1=CCC3C4(C)CCC(OC5OC(COC(=O)C(C)(C)C)C(O)C(OC(=O)C(C)(C)C)C5O)C(C)(C)C4CCC3(C)C1(C)CC2 (centres unmarked)  inhibition (Severe acute respiratory syndrome coronavirus 2; viral replication; 293T/ACE2; 20 µM): 24.4%
O=C(C=Cc1ccc(O)c(O)c1)OC1CC(O)(C(=O)O)CC(OC(=O)C=Cc2ccc(O)c(O)c2)C1O (centres unmarked)  inhibition (Severe acute respiratory syndrome coronavirus 2; cytopathic effect; Vero C1008; 3.125 µM): 0%
C=CCOC(=O)C12CCC(C)(C)CC1C1=CCC3C4(C)CCC(OC5OC(CO)C(OC6OC(C)C(O)C(O)C6O)C(O)C5OC5OC(C)C(O)C(O)C5O)C(C)(C)C4CCC3(C)C1(C)CC2 (centres unmarked)  inhibition (Severe acute respiratory syndrome coronavirus 2; viral replication; 293T/ACE2; 20 µM): 56.3%
O=C(OC1Cc2c(O)cc(O)cc2OC1c1cc(O)c(O)c(O)c1)c1cc(O)c(O)c(O)c1 (centres unmarked)  EC50 (Severe acute respiratory syndrome coronavirus 2; antiviral activity; Huh-7; 96 h): > 100 µM
C[C@]12C=CC(=O)C=C1CC[C@@H]1[C@@H]2[C@@H](O)C[C@@]2(C)[C@H]1C[C@H]1OC(C3CCCC3)O[C@]12C(=O)CO (some centres unmarked)  IC50 (Severe acute respiratory syndrome coronavirus 2; viral replication; VeroE6/TMPRSS2): 16.6 µM
N=C(OC1O[C@H](COC(=O)c2ccccc2)[C@@H](OC(=O)c2ccccc2)[C@H](OC(=O)c2ccccc2)[C@H]1OC(=O)c1ccccc1)C(Cl)(Cl)Cl (some centres unmarked)  inhibition (Severe acute respiratory syndrome coronavirus 2; viral replication; 293T/ACE2; 20 µM): 38.9%
